Published values gathered from unrelated publications.
Compare with care: the assays were run in different laboratories. ± gives the spread as reported.
Chain of UniProt Q96HE7 (whole entry, unmodified, looked up): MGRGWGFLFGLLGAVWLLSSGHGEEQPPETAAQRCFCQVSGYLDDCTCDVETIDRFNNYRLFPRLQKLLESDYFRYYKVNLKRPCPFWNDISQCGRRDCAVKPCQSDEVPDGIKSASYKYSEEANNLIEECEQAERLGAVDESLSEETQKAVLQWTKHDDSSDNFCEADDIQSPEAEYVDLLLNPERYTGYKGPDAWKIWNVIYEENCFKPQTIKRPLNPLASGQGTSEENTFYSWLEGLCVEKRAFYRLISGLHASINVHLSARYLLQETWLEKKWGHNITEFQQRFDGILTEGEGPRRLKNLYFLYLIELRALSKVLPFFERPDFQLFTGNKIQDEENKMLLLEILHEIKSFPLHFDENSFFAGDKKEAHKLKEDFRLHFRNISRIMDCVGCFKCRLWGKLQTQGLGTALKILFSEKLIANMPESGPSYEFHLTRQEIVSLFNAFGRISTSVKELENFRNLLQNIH
Chain of UniProt Q99685 (whole entry, looked up): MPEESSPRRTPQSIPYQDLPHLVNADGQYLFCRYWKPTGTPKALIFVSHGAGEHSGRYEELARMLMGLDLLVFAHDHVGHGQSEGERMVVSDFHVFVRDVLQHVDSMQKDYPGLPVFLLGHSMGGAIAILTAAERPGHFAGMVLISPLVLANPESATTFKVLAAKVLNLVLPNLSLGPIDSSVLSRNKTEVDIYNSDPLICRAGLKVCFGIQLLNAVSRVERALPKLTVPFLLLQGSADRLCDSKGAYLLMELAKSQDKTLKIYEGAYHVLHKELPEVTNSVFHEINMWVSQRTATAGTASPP
Chain of UniProt P25929 (whole entry, unmodified, looked up): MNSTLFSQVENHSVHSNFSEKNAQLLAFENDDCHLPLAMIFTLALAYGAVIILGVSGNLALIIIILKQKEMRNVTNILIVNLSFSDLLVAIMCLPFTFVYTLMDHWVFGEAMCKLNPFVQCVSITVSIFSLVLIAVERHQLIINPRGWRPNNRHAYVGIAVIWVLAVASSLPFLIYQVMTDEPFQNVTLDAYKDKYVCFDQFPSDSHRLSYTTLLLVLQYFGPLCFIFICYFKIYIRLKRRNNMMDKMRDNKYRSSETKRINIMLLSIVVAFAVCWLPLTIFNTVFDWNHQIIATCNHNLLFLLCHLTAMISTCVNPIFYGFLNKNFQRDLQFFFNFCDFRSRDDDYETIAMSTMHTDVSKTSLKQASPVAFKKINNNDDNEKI
Chain of UniProt P28074 (whole entry, looked up): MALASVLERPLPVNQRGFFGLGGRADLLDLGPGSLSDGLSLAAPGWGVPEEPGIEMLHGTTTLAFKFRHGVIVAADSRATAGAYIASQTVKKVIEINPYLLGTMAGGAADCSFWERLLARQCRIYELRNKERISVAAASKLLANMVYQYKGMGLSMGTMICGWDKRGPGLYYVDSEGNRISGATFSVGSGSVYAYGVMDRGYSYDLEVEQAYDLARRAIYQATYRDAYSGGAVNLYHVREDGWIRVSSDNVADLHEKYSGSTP
Chain of UniProt Q15561 (whole entry, looked up): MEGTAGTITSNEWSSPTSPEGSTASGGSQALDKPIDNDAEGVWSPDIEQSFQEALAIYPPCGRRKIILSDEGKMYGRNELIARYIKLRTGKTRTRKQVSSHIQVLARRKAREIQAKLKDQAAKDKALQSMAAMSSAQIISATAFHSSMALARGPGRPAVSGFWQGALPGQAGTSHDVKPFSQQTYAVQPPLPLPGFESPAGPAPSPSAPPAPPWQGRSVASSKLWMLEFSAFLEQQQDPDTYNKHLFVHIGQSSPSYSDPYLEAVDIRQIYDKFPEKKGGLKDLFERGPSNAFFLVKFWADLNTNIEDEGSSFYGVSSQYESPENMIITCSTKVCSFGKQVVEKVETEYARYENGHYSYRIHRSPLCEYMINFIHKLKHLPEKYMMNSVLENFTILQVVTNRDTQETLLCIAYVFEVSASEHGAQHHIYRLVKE
Chain of UniProt Q13936 (whole entry, looked up): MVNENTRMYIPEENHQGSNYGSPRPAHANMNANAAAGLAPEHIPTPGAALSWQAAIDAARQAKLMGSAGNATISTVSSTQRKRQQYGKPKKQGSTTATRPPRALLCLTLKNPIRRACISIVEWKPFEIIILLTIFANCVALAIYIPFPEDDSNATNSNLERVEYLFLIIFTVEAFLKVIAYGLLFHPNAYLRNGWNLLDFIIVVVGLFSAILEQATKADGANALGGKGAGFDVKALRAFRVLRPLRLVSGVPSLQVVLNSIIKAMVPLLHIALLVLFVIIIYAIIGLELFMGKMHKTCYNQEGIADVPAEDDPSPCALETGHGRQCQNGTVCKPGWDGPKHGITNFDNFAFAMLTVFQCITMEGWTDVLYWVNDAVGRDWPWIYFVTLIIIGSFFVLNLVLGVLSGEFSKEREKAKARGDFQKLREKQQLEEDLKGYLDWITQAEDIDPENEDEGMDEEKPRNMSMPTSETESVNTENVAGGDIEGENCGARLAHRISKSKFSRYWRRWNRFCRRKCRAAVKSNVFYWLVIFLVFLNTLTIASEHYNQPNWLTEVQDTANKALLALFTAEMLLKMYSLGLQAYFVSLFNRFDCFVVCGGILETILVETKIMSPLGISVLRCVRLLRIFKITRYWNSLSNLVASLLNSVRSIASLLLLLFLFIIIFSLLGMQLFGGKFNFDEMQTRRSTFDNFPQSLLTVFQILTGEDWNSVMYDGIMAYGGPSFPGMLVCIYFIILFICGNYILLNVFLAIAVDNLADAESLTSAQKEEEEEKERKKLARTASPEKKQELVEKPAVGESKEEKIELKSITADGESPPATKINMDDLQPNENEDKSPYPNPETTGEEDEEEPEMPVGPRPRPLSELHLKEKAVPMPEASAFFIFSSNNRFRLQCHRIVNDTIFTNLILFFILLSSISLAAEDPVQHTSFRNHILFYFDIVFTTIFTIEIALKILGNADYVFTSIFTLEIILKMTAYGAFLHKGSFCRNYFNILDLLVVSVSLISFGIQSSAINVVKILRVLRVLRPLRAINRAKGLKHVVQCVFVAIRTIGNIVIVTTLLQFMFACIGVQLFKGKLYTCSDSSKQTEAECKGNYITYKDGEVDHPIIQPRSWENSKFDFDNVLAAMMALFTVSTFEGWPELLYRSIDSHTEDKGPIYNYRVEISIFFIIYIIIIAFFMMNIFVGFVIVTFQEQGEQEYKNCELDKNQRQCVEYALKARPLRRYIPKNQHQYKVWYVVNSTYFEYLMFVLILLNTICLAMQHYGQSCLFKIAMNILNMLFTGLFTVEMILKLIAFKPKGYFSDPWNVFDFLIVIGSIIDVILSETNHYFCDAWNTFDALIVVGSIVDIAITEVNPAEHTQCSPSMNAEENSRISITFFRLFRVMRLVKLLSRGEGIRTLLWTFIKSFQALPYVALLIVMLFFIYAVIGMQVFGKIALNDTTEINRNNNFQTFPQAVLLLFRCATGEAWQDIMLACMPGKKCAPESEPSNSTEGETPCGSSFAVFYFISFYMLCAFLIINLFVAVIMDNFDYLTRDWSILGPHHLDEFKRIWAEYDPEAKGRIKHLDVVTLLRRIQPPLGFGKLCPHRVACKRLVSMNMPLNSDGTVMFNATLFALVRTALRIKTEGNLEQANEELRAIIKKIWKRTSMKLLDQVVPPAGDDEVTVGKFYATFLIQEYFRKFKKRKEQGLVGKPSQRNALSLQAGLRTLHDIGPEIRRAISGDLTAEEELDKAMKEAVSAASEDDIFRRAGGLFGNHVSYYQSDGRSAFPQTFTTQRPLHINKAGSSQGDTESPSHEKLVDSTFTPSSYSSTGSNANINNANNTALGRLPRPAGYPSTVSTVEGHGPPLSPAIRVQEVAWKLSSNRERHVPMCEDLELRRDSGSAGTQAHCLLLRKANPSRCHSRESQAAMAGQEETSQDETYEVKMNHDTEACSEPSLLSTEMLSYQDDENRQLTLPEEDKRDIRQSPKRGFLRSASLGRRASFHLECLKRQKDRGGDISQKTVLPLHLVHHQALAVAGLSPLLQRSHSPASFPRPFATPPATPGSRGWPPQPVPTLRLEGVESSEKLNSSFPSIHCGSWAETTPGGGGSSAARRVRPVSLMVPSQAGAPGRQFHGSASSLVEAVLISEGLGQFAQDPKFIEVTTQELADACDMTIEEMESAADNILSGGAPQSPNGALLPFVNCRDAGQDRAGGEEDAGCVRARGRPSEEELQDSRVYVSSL
Chain of UniProt Q8HZR1 (whole entry, looked up): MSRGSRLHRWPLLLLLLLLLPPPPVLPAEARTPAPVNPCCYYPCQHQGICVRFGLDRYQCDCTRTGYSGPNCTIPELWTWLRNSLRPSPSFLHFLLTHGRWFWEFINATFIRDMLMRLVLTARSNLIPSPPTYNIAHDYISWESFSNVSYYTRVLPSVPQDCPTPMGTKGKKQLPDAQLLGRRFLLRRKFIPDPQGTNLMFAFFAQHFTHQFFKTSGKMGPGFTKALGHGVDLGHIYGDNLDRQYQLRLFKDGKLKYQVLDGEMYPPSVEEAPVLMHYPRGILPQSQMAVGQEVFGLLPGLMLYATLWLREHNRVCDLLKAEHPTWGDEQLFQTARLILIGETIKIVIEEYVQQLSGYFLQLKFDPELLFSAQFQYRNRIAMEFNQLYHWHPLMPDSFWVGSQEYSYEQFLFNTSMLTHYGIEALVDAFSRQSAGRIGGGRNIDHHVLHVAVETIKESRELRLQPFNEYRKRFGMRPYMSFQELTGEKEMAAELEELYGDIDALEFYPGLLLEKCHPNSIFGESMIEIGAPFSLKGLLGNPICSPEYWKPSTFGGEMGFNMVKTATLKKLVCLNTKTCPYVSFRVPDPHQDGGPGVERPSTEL
Chain of UniProt P20618 (whole entry, looked up): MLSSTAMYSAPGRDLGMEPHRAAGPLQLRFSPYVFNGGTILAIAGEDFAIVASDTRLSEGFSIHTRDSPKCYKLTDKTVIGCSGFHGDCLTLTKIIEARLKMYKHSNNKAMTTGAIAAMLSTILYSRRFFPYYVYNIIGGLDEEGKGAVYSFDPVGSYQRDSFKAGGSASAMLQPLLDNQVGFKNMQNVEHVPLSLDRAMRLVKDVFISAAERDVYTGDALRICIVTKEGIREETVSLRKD
Chain of UniProt Q9HT15 (whole entry, looked up): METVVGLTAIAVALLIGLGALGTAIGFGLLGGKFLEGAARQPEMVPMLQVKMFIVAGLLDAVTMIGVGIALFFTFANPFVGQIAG

For `COc1cc(CNC(=O)C[C@H](C)CCC=C(C)C)ccc1OCc1cn(-c2ccc(F)cc2)nn1`, the growth percent was 68.9% (SR leukaemia cells; SRB; 10 µM, 48 h).
For `C=C(F)C(=O)Nc1cnn2ccc(-c3ccc(C4CCCCC4)cc3)nc12`, the IC50 was 0.0919 µM (Transcriptional enhancer factor TEF-3 (TEAD4, Homo sapiens, UniProt Q15561); enzyme activity, inhibitor).
`NS(=O)(=O)c1ccc(N2N=C(C(F)(F)F)C(O)C2c2ccc(F)cc2F)cc1` (centres unmarked) gave an IC50 of over 500 µM (Prostaglandin G/H synthase 1 (Canis lupus familiaris, UniProt Q8HZR1); TXB2 formation, inhibitor; clotting dog whole blood; 1 h, 37 °C).
For `COc1cc(CNC(=O)C[C@H](C)CCC=C(C)C)ccc1OCc1cn(-c2ccc(Cl)cc2Cl)nn1`, the growth percent was 101% (OVCAR-3 ovarian cancer cells; SRB; 10 µM, 48 h).
The IC50 of `O=C1Nc2cc(Cl)ccc2/C1=C\c1c(Cl)cccc1Cl` is reported as 46.7 µM (alpha-amylase; inhibitor; with: starch).
`CCC(=O)NCCCCNC(=O)NCc1ccc(CNC(=O)[C@@H](CCCNC(=N)N)NC(=O)C(c2ccccc2)c2ccccc2)cc1` gave a Kb of 0.37 µM (Neuropeptide Y receptor type 1 (NPY1R, Homo sapiens, UniProt P25929, F286A); antagonist; human cells).
`C[C@H](OP(=O)(O)O)[C@H]1NC(=O)[C@H](Cc2ccc3ccccc3c2)NC(=O)[C@H](CCCNC(=N)N)NC(=O)[C@@H](CCCNC(=N)N)NC(=O)[C@H](CCCNC(=N)N)NC(=O)[C@H](Cc2ccc3ccccc3c2)NC(=O)[C@@H]2CCCCN2C1=O` has an IC50 of 1.55 ± 0.33 µM (Peptidyl-prolyl cis-trans isomerase NIMA-interacting 1 (PIN1, Homo sapiens, UniProt Q13526); fluorescence anisotropy competition; with: FITC-labelled probe).
With `Cc1ccc(CNC(=O)[C@H](CCc2ccccc2)NC(=O)[C@H](CC(=O)NCC(C)(C)C)NC(=O)c2ccc(OCc3ccccc3)cc2)cc1` the IC50 was 0.0068 µM (Proteasome component C5/PSMB5 (Homo sapiens, UniProt P20618+P28074); inhibitor).
`CCN(CC)CCCNc1c2c(c(C#N)c3nc4ccccc4n13)CCC2` has an IC50 of 23.7 µM (ERO1-like protein alpha (Homo sapiens, UniProt Q96HE7); enzyme activity, inhibitor, fluorescence).
For `Cc1cc(CN(CCCCCCC(=O)NO)Cc2ccc(F)c(C)c2)ccc1F`, the IC50 was 15 µM (Histone deacetylase 2 (HDAC2, Homo sapiens, UniProt Q92769); enzyme activity, inhibitor, fluorescence).
The IC50 of `N=C(N)NCCC[C@@H]1NC(=O)[C@H](Cc2c[nH]c3ccccc23)NC(=O)[C@H](CCCNC(=N)N)NC(=O)[C@H](Cc2c[nH]c3ccccc23)NC(=O)[C@H](CCCNC(=N)N)NC(=O)[C@H](Cc2c[nH]c3ccccc23)NC(=O)[C@H](CCCNC(=N)N)NC(=O)[C@H](Cc2c[nH]c3ccccc23)NC(=O)[C@H](CCCNC(=N)N)NC(=O)[C@H](Cc2c[nH]c3ccccc23)NC(=O)[C@H](CCCNC(=N)N)NC(=O)[C@H](Cc2c[nH]c3ccccc23)NC(=O)[C@H](CCCNC(=N)N)NC(=O)[C@H](Cc2c[nH]c3ccccc23)NC(=O)[C@H](CCCNC(=N)N)NC(=O)[C@H](Cc2c[nH]c3ccccc23)NC1=O` is reported as 0.33 µM (Proto-oncogene tyrosine-protein kinase Src (SRC, Homo sapiens, UniProt P12931); enzyme activity, inhibitor, radiometric).
With `O=C(N[C@@H](CC1CCCCC1)C(=O)N[C@@H](C[C@H]1CCNC1=O)C(=O)C(=O)NC1CC1)OCc1ccccc1` the IC50 was 0.02 ± 0.08 µM (Genome polyprotein, 3C protease (rhinovirus B14, UniProt P03303); 3C protease activity, inhibitor, FRET).
`O=C(O)c1cc(N2N=C(C(F)(F)F)/C(=C\c3ccc(-c4ccccc4)o3)C2=O)ccc1Cl` has an IC50 of 16.5 µM (ERO1-like protein alpha (Homo sapiens, UniProt Q96HE7, C104A/C131A/C166A); enzyme activity, inhibitor, fluorescence).
For `O=C(OC(C(F)(F)F)C(F)(F)F)N1CCC(CCn2cc3ccccc3n2)CC1`, the IC50 was 0.17 µM (Monoglyceride lipase (MGLL, Homo sapiens, UniProt Q99685); enzyme activity, inhibitor).
With `COC(=O)[C@@H](CCSC)NCc1cc2ccccc2nc1SC` the IC50 was 14.3 µM (ATP synthase subunit c, whole ATP synthase complex (atpE, Pseudomonas aeruginosa, UniProt Q9HT15); ATP synthesis, inhibitor; Pseudomonas aeruginosa, inverted membrane vesicles; 10 min, with: NADH).
For `O=C1OC2(c3ccccc31)c1cc([N+](=O)[O-])c(O)c(Br)c1Oc1c2cc([N+](=O)[O-])c(O)c1Br`, the IC50 was 13 µM (Genome polyprotein, NS2B-NS3 interaction (dengue virus type 2, UniProt P29990); NS2B-NS3 interaction, inhibitor, split luciferase complementation).
With `C[C@H](NC(=O)c1cc(S(=O)(=O)N2CCOCC2)ccc1N1CCCCC1)c1cc2ccccc2o1` the IC50 was 3.3 µM (Voltage-dependent L-type calcium channel subunit alpha-1C (CACNA1C, Homo sapiens, UniProt Q13936); calcium signal, fluorescence).
